Assay results collected from several papers.
Each line is one published result; not all experiments were run side by side. ± marks the error that the study gave.

| SMILES | target or system | assay | system | conditions | scale | quantity | value |
| --- | --- | --- | --- | --- | --- | --- | --- |
| Nc1ncc(-c2cc(-c3cnn(CC(F)(F)F)c3)ncc2F)nc1C(=O)NC1CNCC(F)C1 (stereo not shown) | PIM1 | KINOMEscan |  | 1 µM | relative to: DMSO control | remaining binding | 39% |
| CC[n+]1cccc2cc(/C=N/NC(=O)C(=O)N/N=C/c3ccc4c(ccc[n+]4CC)c3)ccc21 | telomeric G4 DNA hybrid-2 | FRET melting |  | 1 µM, DNA 0.2 µM |  | ΔTm | 3.2 ± 0.8 °C |
| CN1CCCNC(=O)c2cccc(c2)C(=O)NCCCN(C)CCCNc2cccc3c2C(=O)c2cccc(c2C3=O)NCCC1 | SAS | RNA-Seq, measured: TMEM39A mRNA |  | 1 µM, 6 h | relative to: untreated cells | log2 fold change | -1.41 |
| C=CC(=O)Nc1cccc(Cn2ncc3cnc(Nc4cnn(CCOC)c4)nc32)c1 | BMPR1B human | binding, KINOMEscan |  | 100 nM | lower = stronger binding | percent of control | 67% |
| CC(C)(C)c1cc(-c2ccc3cccnc3n2)nc(-c2ccc3cccnc3n2)c1.[Cl-].[Cl-].[Ru+2].c1ccc2cc3nc4c5cccnc5c5ncccc5c4nc3cc2c1 | B16-F10 | resazurin |  | with: light 733 nm, 100 J/cm2 | relative to: dark EC50 over light EC50 | phototoxicity index | 4 |
| C=CC(=O)N1[C@H](c2ccc3c(c2)OCO3)c2[nH]c3ccccc3c2C[C@@H]1C(=O)N1CCN(C)CC1 | human cyclin E1 N112C-3xFLAG:CDK2 | co-IP with TMT proteomics, measured: TRIM21 |  | concentration not given, P19474 | relative to: wild type DMSO | relative co-enrichment | 90% |
| COC1CN([C@H]2CC[C@H]([C@@]3(C)Oc4c(Cl)cc(C(=O)NCc5c(SC)cc(C)[nH]c5=O)c(C)c4O3)CC2)C1 |  | RNA-seq, measured: PTX3 | human, whole blood | dose not given, 24 h | relative to: pretreatment baseline | log2 fold change | 1.55 |
| C[n+]1cc(/C=N/NC(=O)c2cncc(C(=O)N/N=C/c3cc4ccccc4[n+](C)c3)n2)cc2ccccc21 | telomeric G4 DNA hybrid-2 | FRET melting |  | 1 µM, DNA 0.2 µM, with: duplex DNA competitor 10 µM |  | ΔTm | 14.9 ± 0.8 °C |
| CC(=O)[O-].O.O.O.O.[Co+2].[O-]c1ccc(Br)cc1C=NCCN1CCOCC1 |  | FRAP |  | 160 µM |  | ferric reducing power | 38.6% |
| C[n+]1ccc(/C=N/NC(=O)C(=O)N/N=C/c2cc[n+](C)c3ccccc23)c2ccccc21 | telomeric G4 DNA hybrid-2 | FRET melting |  | 1 µM, DNA 0.2 µM, with: duplex DNA competitor 10 µM |  | ΔTm | 1.7 ± 0.4 °C |
| CNS(=O)(=O)Nc1nccc(Cc2c(C)c3ccc(Oc4ncccc4F)cc3oc2=O)c1F | HuCCT-1 | cell viability |  | 7 days |  | IC50 | > 1 µM |
| Cc1ncsc1-c1ccc(C(C)NC(=O)C2CC(O)CN2C(=O)C(NC(=O)CCCCCCCCCCN2CCCC(Nc3ncc(Cl)c(Nc4ccccc4S(=O)(=O)C(C)C)n3)C2)C(C)(C)C)cc1 (stereo not shown) | 22Rv1 | RNA-seq, measured: MBD5 mRNA |  | concentration not given | relative to: DMSO | log2 fold change | -1.18 |
| C[n+]1ccc(/C=N/NC(=O)c2ccc3ccc4ccc(C(=O)N/N=C/c5cc[n+](C)cc5)nc4c3n2)cc1 | telomeric G4 DNA hybrid-2 | FRET melting |  | 1 µM, DNA 0.2 µM, with: duplex DNA competitor 10 µM |  | ΔTm | 29.2 ± 0.9 °C |

For quick reference, copied from above:
| SMILES | target or system | assay | system | conditions | scale | quantity | value |
| --- | --- | --- | --- | --- | --- | --- | --- |
| Nc1ncc(-c2cc(-c3cnn(CC(F)(F)F)c3)ncc2F)nc1C(=O)NC1CNCC(F)C1 (stereo not shown) | PIM1 | KINOMEscan |  | 1 µM | relative to: DMSO control | remaining binding | 39% |
